Experimental data from different studies.
Several values in a cell are separate wells, animals, samples, runs or records. ± gives the spread as reported.

CC(C)CCCCC(=O)N[C@@H](CCN)C(=O)N[C@H](C(=O)N[C@@H](CCN)C(=O)N[C@H]1CCNC(=O)[C@H]([C@@H](C)O)NC(=O)[C@H](CCN)NC(=O)[C@H](CCN)NC(=O)[C@H](CC(C)C)NC(=O)[C@@H](Cc2ccccc2)NC(=O)[C@H](CCN)NC1=O)[C@@H](C)O — mid-interval concentration (UPLC-MS/MS; intensive care patients Overall, plasma; iv, dose not given, 6 h post-dose, steady state, polymyxin B dosing): 600 ± 200 ng/mL
CCCCOC(=O)N1CCN(C(=O)[C@H](CP(=O)(O)O)NC(=O)c2cc(N3CC[C@H](OC)C3)nc(-c3ccccc3)n2)CC1 — Vd/F (healthy human, plasma; subcutaneous, 4 mg, placebo i.v.; geometric mean): 52.2 L
NCCCC(=O)O — steady-state concentration (LC-MS; Sprague-Dawley rat, male, anaesthetised, plasma; intravenous infusion, 50 mg/kg/h): 4460 ng/mL and ~4460 ng/mL
C[C@@H]1CCN(C(=O)CC#N)C[C@@H]1N(C)c1ncnc2[nH]ccc12 — urinary excretion unchanged (Japanese human subjects, urine; 15 mg twice daily, 12 h, steady state): 23.3%
CN1CC[C@@H](NC(=O)Nc2ccc(C#N)cc2)C[C@@H]1c1nc2ccccc2[nH]1 — average plasma concentration (Japanese patients, plasma; oral, 50 mg once daily, cycle 1 day 21, steady state, geometric mean): 388 ng/mL
COc1cc(/C=C/c2ccc(N)cc2)cc(OC)c1 — concentration (rat, perirenal fat; oral, 40 mg/kg daily for three days, 24 h, total, pooled): 690 ± 40 ng/g
CC1=C2C[C@H]3[C@@H](CC[C@@H]4C[C@H](NS(C)(=O)=O)CC[C@@]43C)[C@@H]2CC[C@@]2(C1)O[C@@H]1C[C@H](C)CN[C@H]1[C@H]2C — AUClast and Cmax (human; oral, 130 mg, added: high-fat meal; reference: fasted): no effect
NC(=O)c1cnc2[nH]ccc2c1N[C@@H]1[C@@H]2CC3C[C@H]1C[C@@](O)(C3)C2 — AUC(0-inf) (healthy Japanese men, plasma; oral, 20 mg, single dose fasted): 260 ng·h/mL
N[C@@H](CC(=O)N1CCn2c(nnc2C(F)(F)F)C1)Cc1cc(F)c(F)cc1F — AUC(0-2 h) (healthy Korean subjects, plasma; oral, 100 mg single dose, ABCB1 G2677T/A GA+GT): 467 ± 194 ng·h/mL
Cc1nc2cccc(OCC(C)(C)C(=O)NC(C)C)c2c(N)c1C(=O)O — Tmax (female Sprague-Dawley rat, plasma; oral gavage, 10 mg/kg, day 7): 0.33 h
CSc1cc(C)nc(SC)c1NC(=O)CN1CCN(CCSc2nc3ccccc3[nH]2)CC1 — concentration (mouse Crl:CD1 (ICR) female, cerebrum; intranasal repeated, 32.4 µg in 0.01 N HCl, 15 min): 8.9 ng/g
Cc1cc(S(C)(=O)=O)c(S(C)(=O)=O)cc1C(=O)NC(=N)N — QTc interval (QTcB or QTcF) (ambulant boys with DMD; oral, dose not given, 4 weeks): < 450 ms
O=C(c1ccc(OCCN2CCCCC2)cc1)c1c(-c2ccc(O)cc2)sc2cc(O)ccc12 — AUC(0-96 h) (healthy humans, plasma; oral, 60 mg, added: chronic green tea): 0.0098 µM·h
[11CH3]c1ccccc1O[C@@H](c1ccccc1)[C@@H]1CNCCO1 — log P (1-octanol/phosphate buffer; pH 7.4): 2 to 2.47
Clc1ccccc1C(c1ccccc1)(c1ccccc1)n1ccnc1 — thermodynamic solubility (shake-flask; PEG400; 37 °C): 74.5 ± 5.92 mg/g
CC[C@H](C)[C@@H]1NC(=O)[C@H](Cc2ccc(O)cc2)NC(=O)[C@@H](N)CSSC[C@@H](C(=O)N2CCC[C@H]2C(=O)N[C@@H](CC(C)C)C(=O)NCC(N)=O)NC(=O)[C@H](CC(N)=O)NC(=O)[C@H](CCC(N)=O)NC1=O — Cmax (ELISA; knock-out male mice lacking compound, plasma; intraperitoneal, 12 µg total): 255 ± 44 pg/sample
CCC(C)n1ncn(-c2ccc(N3CCN(c4ccc(OCC5COC(Cn6cncn6)(c6ccc(Cl)cc6Cl)O5)cc4)CC3)cc2)c1=O (stereo not drawn) — thermodynamic solubility (shake-flask; polysorbate 80; 37 °C): 1.42 ± 0.19 mg/g
CS(=O)(=O)Nc1ccc(C(=O)O[C@@H](Cc2c(Cl)c[n+]([O-])cc2Cl)c2ccc(OC(F)F)c(OCC3CC3)c2)cc1OCC1CC1 — tmax (human, plasma; inhaled, 1200 µg once daily, day 1, single-dose dry powder inhaler): 2.1 h
C#C[C@]1(O)CC[C@H]2[C@@H]3CCc4cc(O)ccc4[C@H]3CC[C@@]21C — thermodynamic solubility (shake-flask; soybean oil; 37 °C): 13.4 ± 0.47 mg/g
CC[C@@H]1C(=O)N(C)c2cnc(Nc3ccc(C(=O)N[C@H]4CC[C@H](N5CCN(CC6CC6)CC5)CC4)cc3OC)nc2N1C(C)C — Cmax geometric mean (human, plasma; intravenous infusion, 300 mg over 2 h, first infusion): 489 ng/mL
FC(F)(F)Oc1ccc(Oc2ccnc(N3CCC(NC(=S)Nc4cccnc4)CC3)c2Cl)c(Cl)c1 — brain concentration (C57BL/6 mice, brain; i.p. or oral, 30 mg/kg, 4 h): 3 to 6 µM
O=C1N=C(N2CCOCC2)CN1c1ccc(Cl)cc1 — apparent oral clearance (beagle dog, female, plasma; oral, 30 mg/kg, tablets, fasted): 5.18 mL/min/kg
Cn1cc(-c2cn3nccc3c(-c3cnn([C@]4(CC#N)C[C@@H](C#N)C4)c3)n2)cn1 — dose-normalized Cmax (healthy Japanese human, plasma; 400 mg once daily, day 10, multiple dose, fed, geometric mean): 2.2 ng/mL/mg
CCOc1nc2cccc(C(=O)OC(C)OC(=O)OC3CCCCC3)c2n1Cc1ccc(-c2ccccc2-c2nnn[nH]2)cc1 (stereo not drawn) — thermodynamic solubility (shake-flask; polysorbate 80; 37 °C): 26.3 ± 0.54 mg/g
CC(C)=CCC[C@](C)(O[C@@H]1O[C@H](CO)[C@@H](O)[C@H](O)[C@H]1O)[C@H]1CC[C@]2(C)[C@@H]1[C@H](O)C[C@@H]1[C@@]3(C)CC[C@H](O)C(C)(C)[C@@H]3[C@@H](O[C@@H]3O[C@H](CO)[C@@H](O)[C@H](O)[C@H]3O)C[C@]12C — recovery (Sprague Dawley rat, male, small intestine site 4 contents; oral, 0.3 g/kg TU-100, 2 h, no β-glucuronidase treatment; reference: ingested amount): 28.3%
CNCc1ccc(-c2[nH]c3cc(F)cc4c3c2CCNC4=O)cc1 — AUC(0-t) (human, fed high-fat meal, plasma; oral, 600 mg, 24 h, single dose, arithmetic mean): 13900 ng·h/mL
CC(=O)O[C@@]12CO[C@@H]1C[C@H](O)[C@@]1(C)C(=O)[C@H](O)C3=C(C)[C@@H](OC(=O)[C@H](O)[C@@H](NC(=O)OC(C)(C)C)c4ccccc4)C[C@@](O)([C@@H](OC(=O)c4ccccc4)[C@H]21)C3(C)C — clearance (male Sprague-Dawley rat, plasma; intravenous, 10 mg/kg): 71.7 mL/min/kg
C[C@]12CC[C@@H]3c4ccc(O)cc4CC[C@H]3[C@@H]1C[C@@H](O)[C@@H]2O — mean serum concentration (GC-MS; breast cancer women on NSAI, serum; vaginal, 0.03 mg daily, 4 h, day 28): 0.00312 ng/mL
CCCC(C)N1CCC(N(Cc2ccccc2)C(=O)Nc2cccc(C(F)(F)F)c2)CC1 (stereo not drawn) — intrinsic clearance (CD-1 female mouse, liver microsomes; 0.8 µM): 170 mL/min/kg
COc1c(N2C[C@@H]3CCCN[C@@H]3C2)c(F)cc2c(=O)c(C(=O)O)cn(C3CC3)c12 — QTc change (male Hartley guinea pig, anaesthetized; intravenous infusion, 5 mg/kg, 10 min infusion; reference: baseline): 11.2 ± 3%
CC(C)CC(=O)NCC(=O)O — total plasma concentration ratio (human hemodialysis patients, plasma; pre-treatment; reference: hemodialysis over normal subjects): 9
C[C@H]1O[C@@H](O[C@H]2[C@@H](O)C[C@H](O[C@H]3[C@@H](O)C[C@H](O[C@H]4CC[C@@]5(C)[C@H](CC[C@@H]6[C@@H]5C[C@@H](O)[C@]5(C)[C@@H](C7=CC(=O)OC7)CC[C@]65O)C4)O[C@@H]3C)O[C@@H]2C)C[C@H](O)[C@@H]1O — adjusted serum trough concentration (human, serum; oral, dose not given): 1.26 ± 0.04 nmol/L
O=C(CCCCCCC(=O)Nc1ccccc1)NO — AUC(0-8 h) (human patients, serum; oral, 1700 mg once daily): 21.2 µM·h
O=C(CCCN1CCC(O)(c2ccc(Cl)cc2)CC1)c1ccc(F)cc1 — QTc change (male Hartley guinea pig, anaesthetized; intravenous infusion, 0.01 mg/kg, 10 min infusion; reference: baseline): 1.5 ± 0.8%
CC1(C)Oc2cc3oc(=O)ccc3cc2C[C@@H]1O — organ weight (CD-1 mouse, male, heart; oral gavage, 80 mg/kg daily, 4 weeks): 0.18 ± 0.01 g
CCOc1nc2cccc(C(=O)O)c2n1Cc1ccc(-c2ccccc2-c2nnn[nH]2)cc1 — thermodynamic solubility (shake-flask; soybean oil; 37 °C): ≤ 0.03 mg/g
CCCC[C@@H]1NC(=O)[C@@H](NC(=O)[C@H](CCC(=O)O)NC(=O)CNC(=O)CN2CCN(CC(=O)O)CCN(CC(=O)O)CCN(CC(=O)O)CC2)CCCCNC(=O)C[C@@H](C(N)=O)NC(=O)[C@H](C(C)C)NC(=O)[C@@H]2CCCN2C(=O)[C@H](CCCNC(=N)N)NC(=O)CNC(=O)[C@H](Cc2c[nH]c3ccccc23)NC(=O)[C@H](CCCNC(=N)N)NC(=O)[C@@H](Cc2ccccc2)NC(=O)[C@H](Cc2c[nH]cn2)NC(=O)[C@H](CCC(=O)O)NC1=O [indium-111 labelled] — tissue uptake (normal C57 mice, stomach; intravenous, 0.037 MBq, 24 h): 0.06 ± 0.02 %ID/g
Cc1cc(-c2cc(OC(=O)c3ccccc3)ccc2Cl)cc2nnc(Nc3ccc(OCCN4CCCC4)cc3)nc12 — tissue concentration (Dutch Belted rabbit, sclera; topical ocular, 40 µL drop of 0.6%, 2 h): 100 nM
C/C=C/C=C/C=C/CC/C=C/C(=O)NCC(C)(C)O — recovery (rat, small intestine site 4 contents; oral, dose not given, 4 h, no β-glucuronidase treatment; reference: ingested amount): 0.02%
COc1cnc(NS(=O)(=O)c2ccc(NC(=O)/C=C\c3ccc(OC(C)=O)c(OC(C)=O)c3)cc2)nc1 — log P (n-octanol/PBS; pH 7.4): 1.31
Cc1cc(Nc2cc3ncccc3c(N[C@@H]3C[C@H]4CC[C@@H](C3)N4CCC#N)n2)n[nH]1 — Cmax (Sprague-Dawley rat, female, plasma; oral, 100 mg/kg/day, last day of 4 weeks): 13.1 ng/mL
O=c1c(O)c(-c2ccc(O)c(O)c2)oc2cc(O)cc(O)c12 — Papp A→B (mass spectrometry; Caco-2; 40 µM, 6 h): 9.22 ×10⁻⁶ cm/s
CS(=O)(=O)OC[C@H](O)[C@@H]1CO1 — concentration (Wistar rat, female, red blood cell lysate; intraperitoneal, 500 mg/kg of treosulfan, 4 h): 3.1 µM
[2H]C([2H])([2H])Oc1cc2c(cc1OC([2H])([2H])[2H])C1CC(=O)C(CC(C)C)CN1CC2 (stereo not drawn) — dose-normalized AUC(0-t) (item: deuterated α-HTBZ; healthy human volunteers, plasma; oral, 24 mg single dose, standard meal): 16.2 ng·h/mL
CCCC[C@H](NC(C)=O)C(=O)N[C@H]1CCC(=O)NC[C@@H](C(=O)N[C@@H](Cc2c[nH]c3ccccc23)C(N)=O)NC(=O)[C@H](CCCNC(=N)N)NC(=O)[C@@H](Cc2ccccc2)NC(=O)[C@H](Cc2c[nH]cn2)NC1=O — CL/F (female rat, plasma; subcutaneous, 5 mg/kg/day, multiple doses, once daily): 19.4 mL/min/kg
COc1cccc(CN)c1O — half-life (male C57BL/6 mouse, liver; intraperitoneal, 200 mg/kg, single dose): 0.9 h
CCCSc1ccc2nc(NC(=O)OC)[nH]c2c1 — thermodynamic solubility (shake-flask; soybean oil; 37 °C): 0.17 ± 0.01 mg/g
CCCC(CCC)NC(=O)c1ccc2c(c1)OCO2 — parent share of plasma peak area (LC-MS; Sprague-Dawley rat both sexes pooled, plasma; oral, 200 mg/kg, 1 h): 43.8%
des-acyl ghrelin (human) — tissue/serum ratio (wild-type mice, midbrain; intravenous, dose not given, 10 min, vascular space corrected): 7.02 µL/g
Oc1ccc(C(c2ccc(O)cc2)(C(F)(F)F)C(F)(F)F)cc1 — alpha half-life (item: free compound; Hsd:Sprague Dawley rat male, plasma; oral gavage, 340 mg/kg single dose): 1.43 h
COc1ccc2c(c1OC)C(=O)O[C@@H]2[C@H]1c2c(cc3c(c2OC)OCO3)CCN1C — thermodynamic solubility (shake-flask; polysorbate 80; 37 °C): 14.3 ± 0.91 mg/g
COc1cccc(N2CCN(C3=Nc4c(F)cccc4[C@H](CC(=O)O)N3c3cc(C(F)(F)F)ccc3OC)CC2)c1 — AUC(tau) at steady state (healthy women, plasma; intravenous, 240 mg once daily, day 14): 33600 ± 6730 ng·h/mL
O=C(O)c1cc(-c2ccc(F)cc2F)ccc1O — thermodynamic solubility (shake-flask; PEG400; 37 °C): 169 ± 27.3 mg/g
O=C(Nc1ccc2sc(-c3ccc(F)c(F)c3)nc2c1)N1C[C@@H](F)[C@H](F)C1 — brain concentration (mice, brain; intraperitoneal, 5 mg/kg, 1 h): > 16 µM

Some of these lines once more:
C/C=C/C=C/C=C/CC/C=C/C(=O)NCC(C)(C)O — recovery (rat, small intestine site 4 contents; oral, dose not given, 4 h, no β-glucuronidase treatment; reference: ingested amount): 0.02%
CC(C)CCCCC(=O)N[C@@H](CCN)C(=O)N[C@H](C(=O)N[C@@H](CCN)C(=O)N[C@H]1CCNC(=O)[C@H]([C@@H](C)O)NC(=O)[C@H](CCN)NC(=O)[C@H](CCN)NC(=O)[C@H](CC(C)C)NC(=O)[C@@H](Cc2ccccc2)NC(=O)[C@H](CCN)NC1=O)[C@@H](C)O — mid-interval concentration (UPLC-MS/MS; intensive care patients Overall, plasma; iv, dose not given, 6 h post-dose, steady state, polymyxin B dosing): 600 ± 200 ng/mL
NC(=O)c1cnc2[nH]ccc2c1N[C@@H]1[C@@H]2CC3C[C@H]1C[C@@](O)(C3)C2 — AUC(0-inf) (healthy Japanese men, plasma; oral, 20 mg, single dose fasted): 260 ng·h/mL
CC(=O)O[C@@]12CO[C@@H]1C[C@H](O)[C@@]1(C)C(=O)[C@H](O)C3=C(C)[C@@H](OC(=O)[C@H](O)[C@@H](NC(=O)OC(C)(C)C)c4ccccc4)C[C@@](O)([C@@H](OC(=O)c4ccccc4)[C@H]21)C3(C)C — clearance (male Sprague-Dawley rat, plasma; intravenous, 10 mg/kg): 71.7 mL/min/kg
Cn1cc(-c2cn3nccc3c(-c3cnn([C@]4(CC#N)C[C@@H](C#N)C4)c3)n2)cn1 — dose-normalized Cmax (healthy Japanese human, plasma; 400 mg once daily, day 10, multiple dose, fed, geometric mean): 2.2 ng/mL/mg
